Published values gathered from unrelated publications.
A part holds a random share of what one study measured. “And” joins repeats or separate records; there may be more than shown.
Sequence of UniProt Q9UBE8 (whole entry, looked up): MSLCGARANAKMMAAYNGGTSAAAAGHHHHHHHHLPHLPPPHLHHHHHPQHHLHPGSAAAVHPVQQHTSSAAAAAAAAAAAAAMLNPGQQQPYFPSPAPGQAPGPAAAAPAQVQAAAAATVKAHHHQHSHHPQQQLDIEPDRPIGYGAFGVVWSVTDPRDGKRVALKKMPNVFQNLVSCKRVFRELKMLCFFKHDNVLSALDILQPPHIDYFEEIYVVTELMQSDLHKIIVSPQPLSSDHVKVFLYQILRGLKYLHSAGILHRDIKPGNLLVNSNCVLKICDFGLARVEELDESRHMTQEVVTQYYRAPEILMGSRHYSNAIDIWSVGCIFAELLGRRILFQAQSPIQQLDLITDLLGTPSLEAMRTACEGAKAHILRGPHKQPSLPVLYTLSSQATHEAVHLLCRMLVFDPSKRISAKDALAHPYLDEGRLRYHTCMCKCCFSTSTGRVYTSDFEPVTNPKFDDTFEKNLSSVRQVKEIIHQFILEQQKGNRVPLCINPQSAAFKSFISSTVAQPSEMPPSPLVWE
Sequence of UniProt Q96NX5 (whole entry, looked up): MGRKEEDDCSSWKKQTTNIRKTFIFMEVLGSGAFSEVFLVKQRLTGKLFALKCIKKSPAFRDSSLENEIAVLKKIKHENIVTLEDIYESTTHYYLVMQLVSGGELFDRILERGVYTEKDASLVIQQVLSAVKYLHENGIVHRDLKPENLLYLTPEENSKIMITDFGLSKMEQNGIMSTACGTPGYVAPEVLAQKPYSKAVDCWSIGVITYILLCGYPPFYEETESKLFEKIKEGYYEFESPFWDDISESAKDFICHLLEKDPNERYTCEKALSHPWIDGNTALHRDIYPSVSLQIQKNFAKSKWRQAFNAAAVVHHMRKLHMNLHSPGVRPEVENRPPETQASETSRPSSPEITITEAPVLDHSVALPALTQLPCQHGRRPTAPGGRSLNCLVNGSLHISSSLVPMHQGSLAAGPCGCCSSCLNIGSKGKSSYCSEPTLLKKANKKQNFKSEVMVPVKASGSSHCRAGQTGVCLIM
Sequence of UniProt P10721 (whole entry, unmodified, looked up): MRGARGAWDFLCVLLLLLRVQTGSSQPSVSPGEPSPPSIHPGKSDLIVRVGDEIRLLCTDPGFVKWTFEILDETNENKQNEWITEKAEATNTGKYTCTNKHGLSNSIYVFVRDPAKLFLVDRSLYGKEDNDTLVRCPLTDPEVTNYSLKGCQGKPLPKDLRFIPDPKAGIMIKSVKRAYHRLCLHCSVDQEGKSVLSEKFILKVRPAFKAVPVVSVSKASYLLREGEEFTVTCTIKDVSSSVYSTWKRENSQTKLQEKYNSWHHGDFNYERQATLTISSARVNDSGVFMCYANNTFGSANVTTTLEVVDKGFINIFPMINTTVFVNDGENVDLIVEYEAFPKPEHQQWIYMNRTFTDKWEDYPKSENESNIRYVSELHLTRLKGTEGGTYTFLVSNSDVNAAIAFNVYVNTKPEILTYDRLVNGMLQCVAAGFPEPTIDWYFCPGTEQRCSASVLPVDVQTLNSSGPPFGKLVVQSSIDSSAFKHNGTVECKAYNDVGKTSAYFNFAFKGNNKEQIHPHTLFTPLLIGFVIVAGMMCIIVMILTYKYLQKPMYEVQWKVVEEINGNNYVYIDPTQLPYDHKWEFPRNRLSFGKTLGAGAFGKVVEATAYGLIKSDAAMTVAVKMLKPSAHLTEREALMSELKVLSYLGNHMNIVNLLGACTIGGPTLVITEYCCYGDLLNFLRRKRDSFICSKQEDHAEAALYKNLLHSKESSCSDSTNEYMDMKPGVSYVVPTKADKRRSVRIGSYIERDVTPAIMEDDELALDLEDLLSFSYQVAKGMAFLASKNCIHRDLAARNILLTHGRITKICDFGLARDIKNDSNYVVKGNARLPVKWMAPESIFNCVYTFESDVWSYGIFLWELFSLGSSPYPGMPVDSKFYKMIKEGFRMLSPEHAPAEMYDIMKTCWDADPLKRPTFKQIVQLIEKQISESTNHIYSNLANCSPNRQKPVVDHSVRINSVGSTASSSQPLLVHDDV
Sequence of UniProt O00329 (whole entry, looked up): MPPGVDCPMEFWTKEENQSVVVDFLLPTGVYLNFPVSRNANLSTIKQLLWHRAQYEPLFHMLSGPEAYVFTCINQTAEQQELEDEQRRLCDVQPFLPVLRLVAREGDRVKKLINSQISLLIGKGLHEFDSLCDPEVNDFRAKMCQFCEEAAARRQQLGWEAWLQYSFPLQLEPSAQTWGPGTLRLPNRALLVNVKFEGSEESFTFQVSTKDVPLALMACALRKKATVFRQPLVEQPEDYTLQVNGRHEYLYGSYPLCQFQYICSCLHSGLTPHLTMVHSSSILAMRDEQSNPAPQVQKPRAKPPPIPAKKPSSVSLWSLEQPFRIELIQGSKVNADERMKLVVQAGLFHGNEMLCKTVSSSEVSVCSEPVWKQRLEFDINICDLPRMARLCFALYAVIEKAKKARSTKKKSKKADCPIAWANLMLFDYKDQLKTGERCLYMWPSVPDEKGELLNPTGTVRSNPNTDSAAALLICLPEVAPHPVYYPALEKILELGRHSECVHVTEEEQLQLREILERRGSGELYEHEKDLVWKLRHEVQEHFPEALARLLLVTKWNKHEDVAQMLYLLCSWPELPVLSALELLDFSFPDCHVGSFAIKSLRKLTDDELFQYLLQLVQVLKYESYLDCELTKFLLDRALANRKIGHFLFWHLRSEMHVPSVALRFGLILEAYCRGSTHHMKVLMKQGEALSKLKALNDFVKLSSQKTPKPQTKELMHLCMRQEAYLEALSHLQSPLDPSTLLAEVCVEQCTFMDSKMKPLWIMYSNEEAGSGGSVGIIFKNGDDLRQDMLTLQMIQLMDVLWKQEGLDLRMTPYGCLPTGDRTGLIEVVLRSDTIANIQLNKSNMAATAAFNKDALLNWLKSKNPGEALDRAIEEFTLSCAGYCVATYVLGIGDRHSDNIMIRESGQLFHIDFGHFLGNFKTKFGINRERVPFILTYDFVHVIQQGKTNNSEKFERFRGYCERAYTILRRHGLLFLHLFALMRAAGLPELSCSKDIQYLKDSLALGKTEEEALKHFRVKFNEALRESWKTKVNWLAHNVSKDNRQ
Sequence of UniProt P49760 (whole entry, looked up): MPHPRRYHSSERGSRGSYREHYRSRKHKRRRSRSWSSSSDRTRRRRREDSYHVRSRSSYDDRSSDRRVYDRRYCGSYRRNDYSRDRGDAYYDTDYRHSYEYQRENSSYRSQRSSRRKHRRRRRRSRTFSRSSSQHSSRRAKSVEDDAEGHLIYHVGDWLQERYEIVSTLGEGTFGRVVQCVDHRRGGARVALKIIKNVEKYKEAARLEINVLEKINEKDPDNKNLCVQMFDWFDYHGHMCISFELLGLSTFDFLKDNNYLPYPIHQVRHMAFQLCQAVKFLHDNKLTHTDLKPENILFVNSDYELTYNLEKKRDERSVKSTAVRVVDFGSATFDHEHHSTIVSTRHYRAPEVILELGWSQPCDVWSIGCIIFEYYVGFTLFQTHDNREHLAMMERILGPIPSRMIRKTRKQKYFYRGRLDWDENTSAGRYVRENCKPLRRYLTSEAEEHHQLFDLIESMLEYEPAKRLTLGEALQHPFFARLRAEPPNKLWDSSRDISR
Sequence of UniProt Q9H2X6 (whole entry, looked up): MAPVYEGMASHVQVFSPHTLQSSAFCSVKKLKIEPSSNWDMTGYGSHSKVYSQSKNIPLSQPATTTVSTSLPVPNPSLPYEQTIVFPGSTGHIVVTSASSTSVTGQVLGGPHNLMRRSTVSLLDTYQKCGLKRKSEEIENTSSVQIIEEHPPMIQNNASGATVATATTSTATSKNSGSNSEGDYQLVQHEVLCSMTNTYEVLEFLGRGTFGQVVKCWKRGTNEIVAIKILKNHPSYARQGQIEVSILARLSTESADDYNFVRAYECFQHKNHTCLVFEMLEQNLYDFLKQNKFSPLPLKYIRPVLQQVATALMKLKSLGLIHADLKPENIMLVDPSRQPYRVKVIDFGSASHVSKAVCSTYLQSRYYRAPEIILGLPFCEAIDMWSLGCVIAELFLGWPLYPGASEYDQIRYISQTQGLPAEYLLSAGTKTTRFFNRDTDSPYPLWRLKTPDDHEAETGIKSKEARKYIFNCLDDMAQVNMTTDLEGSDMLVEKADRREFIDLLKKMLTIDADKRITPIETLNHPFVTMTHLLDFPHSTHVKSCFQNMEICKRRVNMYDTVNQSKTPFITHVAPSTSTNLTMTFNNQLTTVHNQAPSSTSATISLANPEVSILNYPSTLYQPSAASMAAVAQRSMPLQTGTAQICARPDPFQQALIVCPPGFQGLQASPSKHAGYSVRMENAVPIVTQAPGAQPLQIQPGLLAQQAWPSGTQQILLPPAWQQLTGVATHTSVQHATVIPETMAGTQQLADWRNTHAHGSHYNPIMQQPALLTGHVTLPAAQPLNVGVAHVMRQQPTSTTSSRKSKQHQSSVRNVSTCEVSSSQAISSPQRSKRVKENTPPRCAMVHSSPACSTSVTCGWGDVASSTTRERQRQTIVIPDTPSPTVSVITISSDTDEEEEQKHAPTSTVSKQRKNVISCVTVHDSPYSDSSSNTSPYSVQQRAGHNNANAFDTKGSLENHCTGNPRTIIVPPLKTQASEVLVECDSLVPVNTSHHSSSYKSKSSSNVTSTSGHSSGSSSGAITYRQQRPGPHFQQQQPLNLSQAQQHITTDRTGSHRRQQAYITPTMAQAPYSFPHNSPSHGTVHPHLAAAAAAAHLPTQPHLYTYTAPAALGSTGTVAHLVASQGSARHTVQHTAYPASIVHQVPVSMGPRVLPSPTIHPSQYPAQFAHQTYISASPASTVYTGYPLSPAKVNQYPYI
Sequence of UniProt Q00532 (whole entry, looked up): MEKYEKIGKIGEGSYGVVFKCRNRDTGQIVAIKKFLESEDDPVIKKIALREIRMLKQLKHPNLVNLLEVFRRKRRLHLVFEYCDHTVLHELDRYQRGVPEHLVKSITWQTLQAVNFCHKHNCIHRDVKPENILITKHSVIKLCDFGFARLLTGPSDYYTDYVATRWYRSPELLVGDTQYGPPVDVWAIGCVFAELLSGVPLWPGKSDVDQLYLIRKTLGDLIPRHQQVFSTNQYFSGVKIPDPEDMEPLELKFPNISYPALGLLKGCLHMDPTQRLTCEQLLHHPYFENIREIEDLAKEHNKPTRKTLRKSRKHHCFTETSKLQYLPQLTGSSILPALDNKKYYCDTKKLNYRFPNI

Series 1
Structure (SMILES): CC(C)n1cnc(-c2ccc(F)cc2)c1-c1ncc(C(=O)Nc2ccc(N3CCN(C)CC3)cc2)[nH]1
Technique: phase 2a trial
Species: idiopathic pulmonary fibrosis patients
Quantity: patients with abdominal distension
30 mg once daily, adverse event grade 4: 0%
30 mg once daily, adverse event grade 2: 0%
60 mg once daily, adverse event grade 4: 0%
60 mg once daily, adverse event grade 1: 0%
30 mg once daily, adverse event grade 5: 0%
dose not given, adverse event grade 5, all dose arms pooled: 0%
60 mg once daily, adverse event grade 2: 0%

Series 2
Structure (SMILES): C=CC(=O)N1CCC([C@@H]2CCNc3c(C(N)=O)c(-c4ccc(Oc5ccccc5)cc4)nn32)CC1
Tested at: 1 µM
Quantity: inhibition
Mitogen-activated protein kinase kinase kinase 10 (MAP3K10, Homo sapiens, UniProt Q02779); enzyme activity, inhibitor: 24%
Tyrosine-protein kinase Fer (FER, Homo sapiens, UniProt P16591); enzyme activity, inhibitor: 0%
Serine/threonine-protein kinase TNNI3K (TNNI3K, Homo sapiens, UniProt Q59H18); cell-free assay: 42%
Dual specificity protein kinase CLK2 (CLK2, Homo sapiens, UniProt P49760); enzyme activity, inhibitor: 1%
Serine/threonine-protein kinase/endoribonuclease IRE1 (ERN1, Homo sapiens, UniProt O75460); enzyme activity, inhibitor: 25%
Calcium/calmodulin-dependent protein kinase type 1G (CAMK1G, Homo sapiens, UniProt Q96NX5); enzyme activity: 6%
Myosin-IIIa (MYO3A, Homo sapiens, UniProt Q8NEV4); cell-free assay: 34%

Series 3
Structure (SMILES): N#CC1(c2ccccn2)CCN(Cc2cc(C(=O)N3CCCC3)c(=O)n3ccccc23)CC1
Read-out: cell-free assay
Technique: competition with immobilised ligand
Tested at: 1 µM
Quantity: remaining binding
Mast/stem cell growth factor receptor Kit (KIT, Homo sapiens, UniProt P10721): 95%
Serine/threonine-protein kinase Sgk3 (SGK3, Homo sapiens, UniProt Q96BR1): 82%
Receptor tyrosine-protein kinase erbB-3 (ERBB3, Homo sapiens, UniProt P21860): 93%
Epidermal growth factor receptor (EGFR, Homo sapiens, UniProt P00533, del752-759): 81%
Mitogen-activated protein kinase kinase kinase 14 (MAP3K14, Homo sapiens, UniProt Q99558): 100%
Tyrosine-protein kinase ABL1, non-phosphorylated (ABL1, Homo sapiens, UniProt P00519): 78%
Ribosomal protein S6 kinase alpha-3, N-terminal kinase domain (RPS6KA3, Homo sapiens, UniProt P51812): 60%
Epidermal growth factor receptor (EGFR, Homo sapiens, UniProt P00533, L861Q): 79%
Homeodomain-interacting protein kinase 2 (HIPK2, Homo sapiens, UniProt Q9H2X6): 100%
Tyrosine-protein kinase TXK (TXK, Homo sapiens, UniProt P42681): 91%
Dual specificity protein kinase CLK1 (CLK1, Homo sapiens, UniProt P49759): 85%
Dual specificity mitogen-activated protein kinase kinase 2 (MAP2K2, Homo sapiens, UniProt P36507): 91%
Serine/threonine-protein kinase PLK2 (PLK2, Homo sapiens, UniProt Q9NYY3): 100%
Serine/threonine-protein kinase Nek11 (NEK11, Homo sapiens, UniProt Q8NG66): 63%
BDNF/NT-3 growth factors receptor (NTRK2, Homo sapiens, UniProt Q16620): 93%
Serine/threonine-protein kinase 38 (STK38, Homo sapiens, UniProt Q15208): 64%
Serine/threonine-protein kinase TAO1 (TAOK1, Homo sapiens, UniProt Q7L7X3): 100%
Phosphatidylinositol 4,5-bisphosphate 3-kinase catalytic subunit delta isoform (PIK3CD, Homo sapiens, UniProt O00329): 61%
Mast/stem cell growth factor receptor Kit (KIT, Homo sapiens, UniProt P10721, V559D/V654A): 100%
Serine/threonine-protein kinase NLK (NLK, Homo sapiens, UniProt Q9UBE8): 92%
Uncharacterized serine/threonine-protein kinase SBK3 (SBK3, Homo sapiens, UniProt P0C264): 100%
Cytoplasmic tyrosine-protein kinase BMX (BMX, Homo sapiens, UniProt P51813): 84%
Dual specificity protein kinase CLK4 (CLK4, Homo sapiens, UniProt Q9HAZ1): 97%
Casein kinase I isoform alpha (CSNK1A1, Homo sapiens, UniProt P48729): 79%
Dual specificity mitogen-activated protein kinase kinase 7 (MAP2K7, Homo sapiens, UniProt O14733): 100%

Series 4
SMILES: C[C@H]1CC[C@H](n2c3cnccc3c3cnc(Nc4ccc5c(n4)CCN(C(=O)CO)C5)nc32)CC1
Tested at: 1 µM
Quantity: remaining binding
Serine/threonine-protein kinase NLK (NLK, Homo sapiens, UniProt Q9UBE8); binding, competition with immobilised ligand: 24%
Non-receptor tyrosine-protein kinase TNK1 (TNK1, Homo sapiens, UniProt Q13470); binding, competition with immobilised ligand: 34%
Calcium/calmodulin-dependent protein kinase type 1G (CAMK1G, Homo sapiens, UniProt Q96NX5); binding: 52%
Vascular endothelial growth factor receptor 2 (KDR, Homo sapiens, UniProt P35968); cell-free assay, competition with immobilised ligand: 87%
Cyclin-dependent kinase-like 1 (CDKL1, Homo sapiens, UniProt Q00532); binding: 65%
Discoidin domain-containing receptor 2 (DDR2, Homo sapiens, UniProt Q16832); cell-free assay, competition with immobilised ligand: 100%
Inhibitor of nuclear factor kappa-B kinase subunit beta (IKBKB, Homo sapiens, UniProt O14920); binding: 80%
Tyrosine-protein kinase Fgr (FGR, Homo sapiens, UniProt P09769); cell-free assay, competition with immobilised ligand: 38%

Series 5
Structure (SMILES): Cn1cnc(Cn2ccc3ccc(CNCc4[nH]c5ccccc5c4[C@H]4NC(=O)c5ccc(O)cc54)cc32)c1
Read-out: binding
Action: competitor
Technique: NanoBRET
Cell line: HEK293
Quantity: normalized BRET
KRAS G12C: GTPase KRas (KRAS, Homo sapiens, UniProt P01116, G12C)
KRAS G12C; 3.05 nM, 4 h; reference: vehicle and 20 µM BI compound: 99.3% and 82% and 77.5% and 80.5%
KRAS G12C; 741 nM, 3 h; reference: vehicle and 20 µM BI compound: 49.8% and 49.4% and 54.3% and 43.4%
KRAS G12C; 3.05 nM, 2 h; reference: vehicle and 20 µM BI compound: 91.6% and 95.8% and 96.7% and 101%
GTPase KRas (KRAS, Homo sapiens, UniProt P01116); 741 nM: 29.8% and 31.1% and 36.5% and 47.7%
KRAS G12C; 82.2 nM, 3 h; reference: vehicle and 20 µM BI compound: 114% and 109% and 101%

Excerpt of the above (series 3):
Casein kinase I isoform alpha (CSNK1A1, Homo sapiens, UniProt P48729): 79%
Serine/threonine-protein kinase TAO1 (TAOK1, Homo sapiens, UniProt Q7L7X3): 100%
BDNF/NT-3 growth factors receptor (NTRK2, Homo sapiens, UniProt Q16620): 93%
Dual specificity mitogen-activated protein kinase kinase 7 (MAP2K7, Homo sapiens, UniProt O14733): 100%
